# Measurements collected from several papers.
# Lines come from different studies, so protocols differ.
# PFF0160c: Dihydroorotate dehydrogenase (quinone), mitochondrial (PFF0160c, Plasmodium falciparum, UniProt Q08210)
# Chain of UniProt Q08210 (whole entry, looked up): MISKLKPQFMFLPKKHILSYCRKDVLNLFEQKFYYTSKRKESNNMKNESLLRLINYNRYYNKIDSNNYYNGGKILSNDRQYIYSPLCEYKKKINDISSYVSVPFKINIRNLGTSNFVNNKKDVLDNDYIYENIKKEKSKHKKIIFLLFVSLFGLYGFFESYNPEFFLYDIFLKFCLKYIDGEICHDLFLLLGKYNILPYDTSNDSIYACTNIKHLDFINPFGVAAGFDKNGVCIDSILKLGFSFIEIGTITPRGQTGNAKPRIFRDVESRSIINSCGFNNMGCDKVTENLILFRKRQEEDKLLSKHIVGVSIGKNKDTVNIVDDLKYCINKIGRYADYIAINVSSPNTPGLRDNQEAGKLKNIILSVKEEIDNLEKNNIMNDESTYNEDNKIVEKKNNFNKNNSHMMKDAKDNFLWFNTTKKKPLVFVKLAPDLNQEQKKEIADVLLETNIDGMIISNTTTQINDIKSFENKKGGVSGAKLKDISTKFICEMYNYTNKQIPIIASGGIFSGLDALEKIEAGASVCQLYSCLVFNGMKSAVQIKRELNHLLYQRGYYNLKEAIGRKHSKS
# Chain of UniProt P02769 (whole entry, looked up): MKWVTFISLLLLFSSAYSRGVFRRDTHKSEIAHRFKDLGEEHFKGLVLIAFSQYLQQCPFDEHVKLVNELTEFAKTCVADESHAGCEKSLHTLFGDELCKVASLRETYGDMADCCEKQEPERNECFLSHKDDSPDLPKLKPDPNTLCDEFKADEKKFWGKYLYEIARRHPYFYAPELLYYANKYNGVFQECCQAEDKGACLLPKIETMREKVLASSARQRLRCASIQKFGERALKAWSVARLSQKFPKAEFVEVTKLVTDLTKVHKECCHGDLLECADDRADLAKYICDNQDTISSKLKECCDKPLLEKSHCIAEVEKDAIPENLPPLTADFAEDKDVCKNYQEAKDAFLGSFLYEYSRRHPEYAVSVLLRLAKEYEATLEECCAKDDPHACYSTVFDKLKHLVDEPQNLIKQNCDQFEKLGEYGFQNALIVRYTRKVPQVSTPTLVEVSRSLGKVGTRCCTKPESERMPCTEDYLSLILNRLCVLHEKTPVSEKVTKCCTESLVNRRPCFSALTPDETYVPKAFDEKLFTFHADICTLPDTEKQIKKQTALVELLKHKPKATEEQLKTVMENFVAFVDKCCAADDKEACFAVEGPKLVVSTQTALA
# Chain of UniProt Q16512 (whole entry, looked up): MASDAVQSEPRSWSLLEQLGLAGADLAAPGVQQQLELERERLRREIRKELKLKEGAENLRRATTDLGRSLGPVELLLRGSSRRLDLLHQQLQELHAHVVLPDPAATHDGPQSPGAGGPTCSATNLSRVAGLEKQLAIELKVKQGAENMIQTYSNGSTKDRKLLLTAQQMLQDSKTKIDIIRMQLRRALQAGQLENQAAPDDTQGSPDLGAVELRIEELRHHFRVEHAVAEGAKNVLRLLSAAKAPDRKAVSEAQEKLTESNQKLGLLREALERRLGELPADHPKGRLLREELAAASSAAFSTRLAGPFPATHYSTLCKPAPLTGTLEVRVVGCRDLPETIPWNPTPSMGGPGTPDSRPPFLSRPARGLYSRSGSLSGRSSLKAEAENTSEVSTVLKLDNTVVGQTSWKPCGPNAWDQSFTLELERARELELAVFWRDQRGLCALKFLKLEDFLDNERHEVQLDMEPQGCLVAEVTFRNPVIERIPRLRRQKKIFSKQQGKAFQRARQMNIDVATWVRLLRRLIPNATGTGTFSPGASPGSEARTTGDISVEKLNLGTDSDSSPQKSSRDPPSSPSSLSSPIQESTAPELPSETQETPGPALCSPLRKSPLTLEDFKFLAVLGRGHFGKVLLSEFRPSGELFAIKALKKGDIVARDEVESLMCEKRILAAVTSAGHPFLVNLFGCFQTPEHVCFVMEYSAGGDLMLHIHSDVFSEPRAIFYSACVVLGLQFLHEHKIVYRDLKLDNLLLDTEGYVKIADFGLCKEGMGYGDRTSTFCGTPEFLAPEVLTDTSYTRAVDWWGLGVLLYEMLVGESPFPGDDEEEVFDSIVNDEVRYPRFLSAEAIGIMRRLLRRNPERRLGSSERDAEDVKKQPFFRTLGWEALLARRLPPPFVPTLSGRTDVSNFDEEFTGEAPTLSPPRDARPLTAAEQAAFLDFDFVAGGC
SMILES,target or system,assay,system,setting,endpoint,value
CC(C)C[C@H](NC(=O)[C@H](Cc1ccccc1)NC(=O)[C@H](Cc1ccccc1)NC(=O)Cc1ccc(-c2ccccc2)cc1)C(=O)N[C@@H](CCCCN)C(=O)N[C@@H](CCCNC(=N)N)C(=O)N[C@H](C(=O)N[C@@H](Cc1c[nH]c2ccccc12)C(=O)N[C@@H](CCCCN)C(=O)N[C@@H](CCCNC(=N)N)C(=O)O)C(C)C,,"metabolic stability, mass spectrometry","human, liver microsomes",15 min,compound remaining,47.1%
Nc1c2c(nc3c1C(c1ccc(Cl)c(Cl)c1)c1ccc(OCC(=O)c4ccccc4)cc1O3)CCCC2 (centres unmarked),SH-SY5Y,"cell growth or viability, MTT",,1.6 µM,viability,69.2%
COc1cc(-c2[o+]c3cc(O)cc(O)c3cc2O[C@@H]2O[C@H](CO)[C@@H](O)[C@H](O)[C@H]2O)cc(OC)c1O,"Albumin (ALB, Bos taurus, UniProt P02769)","binding, absorbance",,pH 7,Kd,395 µM
CCSc1nnc(C2CCCN(CC(=O)Nc3cc(C(F)(F)F)ccc3Cl)C2)n1CC (centres unmarked),PFF0160c,"enzyme activity, inhibitor, absorbance",,,IC50,0.272 µM
C[N+]1=C2C=C(N/C=C/c3ccc(O)cc3)C(=O)c3[nH]cc(c32)CC1,HeLa,"cell growth or viability, MTT",,72 h,CC50,4.7 µM
C[C@]12CC[C@H]3[C@@H](CC=C4CC(O)CC[C@@]43CO)[C@@H]1CCC2O (some centres unmarked),,,"rat, plasma","intraperitoneal, 20 mg/kg",AUC,2370 ng·h/mL
CCN(CC)CC#Cc1ccc2[nH]c(C)c(Cl)c(=O)c2c1,PFF0160c,"enzyme activity, inhibitor, absorbance",,,IC50,0.652 µM
CCCCCCCCCCOc1cc2c(O)c(C(=O)OCC)cnc2cc1OCC,BaF3,"cell growth or viability, ATP luminescence",,72 h,IC50,> 12.5 µM
Cc1ccc(S(=O)(=O)Oc2ccc3c(c2)Oc2nc4c(c(N)c2C3c2ccc(Cl)c(Cl)c2)CCCC4)cc1 (centres unmarked),SH-SY5Y,"cell growth or viability, MTT",,100 µM,viability,49.3%
[2H]c1c([2H])c([C@]2([2H])CCCN2C(=O)C(C)(C)Oc2ccc3cn[nH]c3c2)c([2H])c([2H])c1C([2H])([2H])[2H],"PKN1 (Homo sapiens, UniProt Q16512)","binding, competition with immobilised ligand",,1 µM,remaining binding,80%
O=C1CC[C@H](N2Cc3c(ccc4c3OCC43CCN(C[C@@H]4CCC5(CCN(c6ccc([C@@H]7c8ccc(O)cc8CC[C@@H]7c7ccccc7)cc6)CC5)OC4)CC3)C2=O)C(=O)N1,,,"beagle dog, plasma","intravenous, 1 mg/kg",clearance,2.1 mL/min/kg
Nc1c2c(nc3c1C(c1cccc([N+](=O)[O-])c1)c1ccc(OCC(=O)c4ccc(Cl)cc4)cc1O3)CCCC2 (centres unmarked),SH-SY5Y,"cell growth or viability, MTT",,100 µM,viability,40.6%
[18FH],,,"mouse, brain","intravenous, 1 h",tracer uptake,0.13 %ID/g
CCOC(=O)c1c(NC(=O)CNC(C)C)sc2c1CCCCC2,,,"male mouse, brain","intraperitoneal, 5 mg/kg, 30 min",concentration,379 ng/g

# Some of these lines once more:
SMILES,target or system,assay,system,setting,endpoint,value
Cc1ccc(S(=O)(=O)Oc2ccc3c(c2)Oc2nc4c(c(N)c2C3c2ccc(Cl)c(Cl)c2)CCCC4)cc1 (centres unmarked),SH-SY5Y,"cell growth or viability, MTT",,100 µM,viability,49.3%
